# Published values pooled from the literature.
# Parts stem from different laboratories: compare values within a part only.
# UniProt Q13523, sequence (whole entry, looked up): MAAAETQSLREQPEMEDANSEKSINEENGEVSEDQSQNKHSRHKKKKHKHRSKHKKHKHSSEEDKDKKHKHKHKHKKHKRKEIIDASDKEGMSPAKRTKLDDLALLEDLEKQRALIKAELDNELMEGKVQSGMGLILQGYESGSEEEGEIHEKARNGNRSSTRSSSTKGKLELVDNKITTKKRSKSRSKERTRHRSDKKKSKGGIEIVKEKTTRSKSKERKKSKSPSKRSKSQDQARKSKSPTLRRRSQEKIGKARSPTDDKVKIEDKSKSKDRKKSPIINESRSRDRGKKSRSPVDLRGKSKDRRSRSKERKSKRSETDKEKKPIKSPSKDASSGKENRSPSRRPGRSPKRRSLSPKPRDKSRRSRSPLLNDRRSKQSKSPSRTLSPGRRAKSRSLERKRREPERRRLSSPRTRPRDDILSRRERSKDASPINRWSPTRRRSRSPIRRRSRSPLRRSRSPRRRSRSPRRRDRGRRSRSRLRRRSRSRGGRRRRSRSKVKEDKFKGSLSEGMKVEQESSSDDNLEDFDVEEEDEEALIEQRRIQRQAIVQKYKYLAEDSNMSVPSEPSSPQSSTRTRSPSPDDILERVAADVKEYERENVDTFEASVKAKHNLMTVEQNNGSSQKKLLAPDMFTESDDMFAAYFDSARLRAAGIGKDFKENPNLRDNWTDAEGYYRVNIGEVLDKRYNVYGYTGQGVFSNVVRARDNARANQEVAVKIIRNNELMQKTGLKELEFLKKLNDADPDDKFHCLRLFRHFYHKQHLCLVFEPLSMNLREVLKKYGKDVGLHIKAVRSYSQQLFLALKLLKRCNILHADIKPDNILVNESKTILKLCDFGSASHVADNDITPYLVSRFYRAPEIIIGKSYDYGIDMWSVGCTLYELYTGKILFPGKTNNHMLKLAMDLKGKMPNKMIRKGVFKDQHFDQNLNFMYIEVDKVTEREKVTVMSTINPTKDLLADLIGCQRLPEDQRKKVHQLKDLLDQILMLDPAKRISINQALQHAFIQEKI
# UniProt P50613, sequence (whole entry, looked up): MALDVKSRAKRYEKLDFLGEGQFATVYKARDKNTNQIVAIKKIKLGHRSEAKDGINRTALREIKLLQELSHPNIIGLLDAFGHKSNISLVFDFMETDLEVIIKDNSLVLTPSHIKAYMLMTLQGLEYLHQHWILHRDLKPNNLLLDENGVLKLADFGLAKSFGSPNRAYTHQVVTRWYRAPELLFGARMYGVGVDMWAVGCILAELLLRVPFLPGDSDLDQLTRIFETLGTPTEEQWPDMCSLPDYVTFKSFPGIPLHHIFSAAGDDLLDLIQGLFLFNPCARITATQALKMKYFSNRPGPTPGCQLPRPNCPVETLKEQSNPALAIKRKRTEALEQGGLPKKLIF
# UniProt Q9Y6E0, sequence (whole entry, looked up): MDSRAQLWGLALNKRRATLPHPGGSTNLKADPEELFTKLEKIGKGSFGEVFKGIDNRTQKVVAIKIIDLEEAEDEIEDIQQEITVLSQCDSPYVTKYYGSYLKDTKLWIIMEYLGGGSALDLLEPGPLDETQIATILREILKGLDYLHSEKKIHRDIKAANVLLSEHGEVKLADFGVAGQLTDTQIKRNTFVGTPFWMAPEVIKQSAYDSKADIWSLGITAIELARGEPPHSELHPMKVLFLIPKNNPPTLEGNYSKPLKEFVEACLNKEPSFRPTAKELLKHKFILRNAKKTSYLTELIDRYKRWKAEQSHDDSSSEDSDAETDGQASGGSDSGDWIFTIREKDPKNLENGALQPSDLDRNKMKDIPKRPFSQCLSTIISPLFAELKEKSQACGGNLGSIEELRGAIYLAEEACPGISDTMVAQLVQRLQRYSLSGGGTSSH
# UniProt P35916, sequence (whole entry, looked up): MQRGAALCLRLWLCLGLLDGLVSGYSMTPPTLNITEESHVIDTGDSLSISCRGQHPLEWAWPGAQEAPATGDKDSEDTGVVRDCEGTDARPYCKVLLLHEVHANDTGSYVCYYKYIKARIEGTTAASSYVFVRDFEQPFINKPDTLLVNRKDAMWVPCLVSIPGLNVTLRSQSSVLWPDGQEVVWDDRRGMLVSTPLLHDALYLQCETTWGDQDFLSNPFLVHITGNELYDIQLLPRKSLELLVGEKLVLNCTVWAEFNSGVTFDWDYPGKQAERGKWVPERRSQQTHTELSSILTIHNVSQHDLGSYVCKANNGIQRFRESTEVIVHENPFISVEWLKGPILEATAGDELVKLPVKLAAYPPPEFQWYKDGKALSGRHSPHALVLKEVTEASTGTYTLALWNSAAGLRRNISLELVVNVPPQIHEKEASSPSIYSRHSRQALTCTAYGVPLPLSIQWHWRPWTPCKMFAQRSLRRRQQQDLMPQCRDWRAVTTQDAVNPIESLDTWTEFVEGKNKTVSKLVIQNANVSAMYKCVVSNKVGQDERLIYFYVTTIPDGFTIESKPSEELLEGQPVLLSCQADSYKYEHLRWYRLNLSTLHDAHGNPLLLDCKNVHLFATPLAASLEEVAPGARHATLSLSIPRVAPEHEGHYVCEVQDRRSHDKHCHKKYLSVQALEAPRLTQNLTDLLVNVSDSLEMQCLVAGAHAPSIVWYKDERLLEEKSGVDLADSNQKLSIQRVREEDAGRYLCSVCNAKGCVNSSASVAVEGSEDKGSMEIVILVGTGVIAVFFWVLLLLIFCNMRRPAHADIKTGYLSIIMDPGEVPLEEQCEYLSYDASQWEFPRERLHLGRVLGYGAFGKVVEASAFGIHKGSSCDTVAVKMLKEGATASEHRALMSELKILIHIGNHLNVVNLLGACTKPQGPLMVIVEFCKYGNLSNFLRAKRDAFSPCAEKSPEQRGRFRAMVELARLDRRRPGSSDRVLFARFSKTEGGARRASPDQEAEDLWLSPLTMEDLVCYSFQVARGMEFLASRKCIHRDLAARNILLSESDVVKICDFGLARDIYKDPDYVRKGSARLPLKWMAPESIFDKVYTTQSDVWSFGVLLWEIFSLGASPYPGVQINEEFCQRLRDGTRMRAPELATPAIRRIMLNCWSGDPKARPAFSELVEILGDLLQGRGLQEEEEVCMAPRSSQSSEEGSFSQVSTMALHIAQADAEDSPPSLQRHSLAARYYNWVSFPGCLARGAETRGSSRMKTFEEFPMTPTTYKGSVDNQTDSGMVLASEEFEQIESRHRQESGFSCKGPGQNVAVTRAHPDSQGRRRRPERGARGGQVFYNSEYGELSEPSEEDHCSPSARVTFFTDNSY
# UniProt Q99755, sequence (whole entry, looked up): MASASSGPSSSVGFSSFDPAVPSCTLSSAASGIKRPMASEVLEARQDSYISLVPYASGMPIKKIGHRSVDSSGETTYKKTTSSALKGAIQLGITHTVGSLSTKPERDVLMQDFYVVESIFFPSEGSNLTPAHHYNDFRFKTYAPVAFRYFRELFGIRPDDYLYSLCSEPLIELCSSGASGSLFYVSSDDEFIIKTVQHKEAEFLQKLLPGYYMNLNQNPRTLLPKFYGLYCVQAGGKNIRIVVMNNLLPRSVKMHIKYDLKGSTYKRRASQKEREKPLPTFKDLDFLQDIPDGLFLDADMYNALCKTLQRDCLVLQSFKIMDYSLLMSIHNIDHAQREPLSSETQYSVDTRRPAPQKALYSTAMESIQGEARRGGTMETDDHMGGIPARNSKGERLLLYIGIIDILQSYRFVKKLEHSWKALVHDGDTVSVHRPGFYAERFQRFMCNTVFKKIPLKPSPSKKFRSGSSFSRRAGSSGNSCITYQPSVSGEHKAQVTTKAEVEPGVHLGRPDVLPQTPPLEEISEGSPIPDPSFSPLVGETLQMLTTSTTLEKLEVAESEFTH
# UniProt P50750, sequence (whole entry, looked up): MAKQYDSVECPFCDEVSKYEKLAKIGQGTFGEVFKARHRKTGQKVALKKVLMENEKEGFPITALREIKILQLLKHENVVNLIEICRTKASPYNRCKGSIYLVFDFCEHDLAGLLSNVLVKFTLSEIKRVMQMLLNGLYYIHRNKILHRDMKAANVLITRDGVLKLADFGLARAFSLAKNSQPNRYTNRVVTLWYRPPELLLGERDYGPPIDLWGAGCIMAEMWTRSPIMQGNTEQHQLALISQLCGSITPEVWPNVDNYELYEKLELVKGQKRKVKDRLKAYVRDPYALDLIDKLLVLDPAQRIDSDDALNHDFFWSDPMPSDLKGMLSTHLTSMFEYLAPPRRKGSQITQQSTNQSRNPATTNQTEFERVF
# UniProt P11802, sequence (whole entry, looked up): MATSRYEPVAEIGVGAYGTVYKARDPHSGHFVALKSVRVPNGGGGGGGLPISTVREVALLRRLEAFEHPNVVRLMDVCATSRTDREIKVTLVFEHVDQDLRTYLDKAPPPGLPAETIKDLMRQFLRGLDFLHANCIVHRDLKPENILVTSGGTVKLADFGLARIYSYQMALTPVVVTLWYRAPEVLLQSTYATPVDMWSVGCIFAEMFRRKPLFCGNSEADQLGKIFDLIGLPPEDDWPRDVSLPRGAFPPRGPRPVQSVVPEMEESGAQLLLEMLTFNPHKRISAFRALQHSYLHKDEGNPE
# UniProt Q8IVW4, sequence (whole entry, looked up): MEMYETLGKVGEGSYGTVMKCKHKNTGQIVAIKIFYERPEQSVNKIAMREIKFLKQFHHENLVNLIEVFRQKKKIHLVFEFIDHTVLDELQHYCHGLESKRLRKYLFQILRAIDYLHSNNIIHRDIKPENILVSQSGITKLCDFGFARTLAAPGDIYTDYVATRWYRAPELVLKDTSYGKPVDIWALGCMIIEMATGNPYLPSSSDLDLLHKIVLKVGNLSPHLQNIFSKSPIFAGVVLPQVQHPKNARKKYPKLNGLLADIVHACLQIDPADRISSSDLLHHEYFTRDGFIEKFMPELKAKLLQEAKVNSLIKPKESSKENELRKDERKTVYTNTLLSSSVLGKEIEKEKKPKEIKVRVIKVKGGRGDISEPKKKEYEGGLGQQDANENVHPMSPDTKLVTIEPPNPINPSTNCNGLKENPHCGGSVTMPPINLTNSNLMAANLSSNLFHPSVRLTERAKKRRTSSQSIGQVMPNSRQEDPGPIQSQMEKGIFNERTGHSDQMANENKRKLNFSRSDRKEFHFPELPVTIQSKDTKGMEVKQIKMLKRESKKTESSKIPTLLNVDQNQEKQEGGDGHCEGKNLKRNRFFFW

# Study 1 — technique: aptamer microarray, sandwich; form: DNA with 2'F-ANA; matrix: in vitro; tested at: 200 nM; together with: Cy3 exosite-II aptamer, 400 nM; reading: higher = stronger binding; sequence: GGTTGGTGTGGTTGG
# Target: Prothrombin, mature alpha-thrombin (F2, Homo sapiens, UniProt P00734)
# Notes: whole 15-mer aptamer, many near background
Modification,mean fluorescence intensity [a.u.]
2'F-ANA at 1 2 8 11 14,60.3
2'F-ANA at 1 6 15,209
2'F-ANA at 2 5 6 7 8 12 14 15,50.8
2'F-ANA at 2 6 7 10 15,131
2'F-ANA at 1 2 6 9 11 13 14,69.4
2'F-ANA at 1 2 3 4 7 8 15,270
2'F-ANA at 1 2 4 5 6 7 11 13 14 15,49.7
2'F-ANA at 1 3 7 9 12 13 14,103

# Study 2 — technique: RNAcompete; form: RNA; matrix: in vitro; tested at: 20 nM; notes: 7-mer, probes averaged, single round; relative to: mean of 7-mers; reading: higher = stronger binding
# Target: PABPC1L2, full length, GST fusion (mouse, UniProt A0ABA7IW68)
# Construct (chain): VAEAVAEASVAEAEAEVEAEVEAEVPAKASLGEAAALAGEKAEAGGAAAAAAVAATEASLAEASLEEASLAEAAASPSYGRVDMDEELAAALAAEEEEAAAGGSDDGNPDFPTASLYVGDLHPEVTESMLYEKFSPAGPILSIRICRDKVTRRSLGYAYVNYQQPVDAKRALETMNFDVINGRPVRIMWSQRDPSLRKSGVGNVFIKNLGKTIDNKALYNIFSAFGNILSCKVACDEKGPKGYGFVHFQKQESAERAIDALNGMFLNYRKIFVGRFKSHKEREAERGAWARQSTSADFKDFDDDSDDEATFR
Sequence,7-mer Z-score
UCUAUCC,-0.32
UAAUAAG,-0.0826
UGAGGGA,0.338
AGAGAAC,0.111
GAAACUA,0.514
GCAUACU,-0.193
CAAACAU,1.41
ACGCCUG,-0.17

# Study 3 — technique: competition with immobilised ligand; tested at: 1 µM
# Structure (SMILES): Cc1c(NC(=O)c2cc(C(N)=O)nc3cc(F)ccc23)c(C(F)(F)F)nn1Cc1ccc(C#N)cc1
target,assay,remaining binding [%]
"Tyrosine-protein kinase JAK1, JH2 (JAK1, Homo sapiens, UniProt P23458)",cell-free assay,86
"MAK (Homo sapiens, UniProt P20794)",binding,79
"PIP5K1A (Homo sapiens, UniProt Q99755)",cell-free assay,100
"CDK7 (Homo sapiens, UniProt P50613)",cell-free assay,52
"Tyrosine-protein kinase ABL1, non-phosphorylated (ABL1, Homo sapiens, UniProt P00519, T315I)",cell-free assay,100
"GRK2 (Homo sapiens, UniProt P25098)",cell-free assay,87
"MAP3K5 (Homo sapiens, UniProt Q99683)",cell-free assay,91
"CDKL3 (Homo sapiens, UniProt Q8IVW4)",binding,80
"PRPF4B (Homo sapiens, UniProt Q13523)",cell-free assay,93
"TEK (Homo sapiens, UniProt Q02763)",cell-free assay,92
"STK24 (Homo sapiens, UniProt Q9Y6E0)",cell-free assay,78
"FLT4 (Homo sapiens, UniProt P35916)",cell-free assay,100
"LATS1 (Homo sapiens, UniProt O95835)",cell-free assay,94
"CDK9 (Homo sapiens, UniProt P50750)",cell-free assay,86
"PIM1 (Homo sapiens, UniProt P11309)",cell-free assay,86
"CDK4 (Homo sapiens, UniProt P11802)",cell-free assay,100
"EPHA2 (Homo sapiens, UniProt P29317)",cell-free assay,81
"DAPK1 (Homo sapiens, UniProt P53355)",cell-free assay,86

# Further values, each from its own experiment
Compound,target or system,assay,test system,setting,scale,endpoint,result
CCCCc1oc2ccc(NS(C)(=O)=O)cc2c1C(=O)c1ccc(OCCCN(CCCC)CCCC)cc1,A-375,,,"100 µM, 36 h",,viability,-0.479%
CS(=O)(=O)c1ccc(C2=C(c3ccccc3)C(=O)OC2)cc1,mouse MPNST tumor cells,"high-content nuclear imaging, measured: cell number",,"10 µM, 12 h, mean of 2 replicates","relative to: plate mean, higher = more cells",nuclei count,0.638 z-score
CCCCCOc1ccc(NC(=O)Nc2ccc(Cl)c(Cl)c2)cc1,,"AlphaScreen signal, AlphaScreen counter screen",His6 peptide without bromodomain,"50 µM, assay interference check",,inhibition,-0.25%

# Repeated from above (study 2):
Sequence,7-mer Z-score
UGAGGGA,0.338
AGAGAAC,0.111
GAAACUA,0.514
